# Assay results from different studies.
# Protocols differ between the studies behind these lines. Values joined by “and” are separate records of one study, mostly repeats; a detail may differ. ± gives the spread as reported.
# WD repeat-containing protein 91: WD repeat-containing protein 91 (Homo sapiens, UniProt A4D1P6)
# Genome polyprotein NS3 helicase domain: Genome polyprotein, NS3 helicase domain (Hepatitis C virus genotype 1b, UniProt Q9WMX2)
# WD repeat-containing protein 91 WD40 domain, residues 392–747: WD repeat-containing protein 91, WD40 domain, residues 392–747 (Homo sapiens, UniProt A4D1P6)
# ESR1: Estrogen receptor (ESR1, Homo sapiens, UniProt P03372)
Structure (SMILES),target,assay,system,conditions,how to read,measurement,value
COc1cc(/C=C/c2ccc(O)cc2)cc(OC)c1,"O-methyltransferase (Sorghum bicolor, UniProt A0A1B6PFV1)",ITC,,"one set of sites, together with: SFG",,-T∆S,0.41 kcal/mol
COc1cc(Nc2ncc3c(n2)-c2ccc(Cl)cc2C(c2c(F)cccc2OC)=NC3)ccc1C(=O)O,CHEK2,kinase activity,,1 µM,,remaining activity,57%
O=S(=O)(O)C1CCNCC1,"SLC6A6 (Homo sapiens, UniProt P31641, Y138A)","binding, microscale thermophoresis",,"32.7 nM, fitted curve",higher = more binding,fraction bound,0
COCCC(=O)N1CCC(Oc2ccccc2)C1 (centres unmarked),WD repeat-containing protein 91,"binding, affinity selection mass spectrometry",,,reference: other proteins in batch,log fold enrichment,-0.0241
CC(=O)N[C@H](C(=O)N[C@@H](CC(N)=O)C(=O)N[C@@H](CCCCN)C(=O)N[C@@H](C)C(=O)N[C@@H](CC(C)C)C(=O)N1CCC[C@H]1C(=O)N[C@@H](C)C(=O)N[C@@H](CC(C)C)C(=O)N1CCC[C@H]1C(=O)N[C@H](C(=O)N[C@@H](C)C(N)=O)C(C)C)C(C)C,"Tyrosine-protein kinase Fyn, SH3 domain (FYN, Homo sapiens, UniProt P06241)","binding, isothermal titration calorimetry","50 mM sodium phosphate, 100 mM NaCl","concentration not given, pH 7.0, 25 °C",,enthalpy change,-10 ± 0.454 kcal/mol
C=CC(=O)N1CCC[C@@H](n2nc(-c3ccc(Oc4ccccc4)cc3)c3c(N)ncnc32)C1,"SRMS (Homo sapiens, UniProt Q9H3Y6)",,,0.1 µM,,remaining activity,66.9%
CCOC(=O)[C@]12CC1/C(=N\O)c1ccccc1O2 (mixture of isomers),Genome polyprotein NS3 helicase domain,"DNA binding, inhibitor",hepatitis C virus,"100 µM, together with: Cy5-dT15 DNA",,inhibition,0%
Nc1nc2c(ncn2[C@@H]2O[C@H](COP(=O)(O)O)[C@@H](O)[C@H]2O)c(=O)[nH]1,"GUK1 (Homo sapiens, UniProt Q16774, Y81A)","enzyme activity, NADH-coupled",,2000 µM,,reaction rate,6.19 s⁻¹ and 6.55 s⁻¹ and 4.91 s⁻¹
CC1(C)C(/C=C/C=C2/N(CCCc3ccccc3)c3ccc4ccccc4c3C2(C)C)=[N+](CCCc2ccccc2)c2ccc3ccccc3c21.[Br-],"PRMT3 (Homo sapiens, UniProt O60678)","inhibitor, filter binding",,together with: R4 peptide substrate,,Hill coefficient,1.98
COC(=O)CCc1c(C)nn(-c2ccc(C(=O)N3CCC(C#N)CC3)cc2)c1C,"WD repeat-containing protein 91 WD40 domain, residues 392–747","binding, SPR single-concentration screen",,45 µM,,SPR response,-6.5 RU and 0.3 RU
O=C(NC1CCCS(=O)(=O)c2ccccc21)c1ccc2nc(O)cnc2c1 (centres unmarked),WD repeat-containing protein 91,"binding, SPR steady state",,0.05859 µM,,SPR response,-0.0183 RU
CC[C@H](C)[C@H](NC(=O)[C@H](CCCCN)NC(=O)CNC(=O)[C@@H](NC(=O)[C@@H](NC(=O)[C@H](CCSC)NC(=O)[C@H](Cc1c[nH]cn1)NC(=O)CN)[C@@H](C)O)C(C)C)C(=O)N[C@@H](Cc1ccc(O)cc1)C(=O)N[C@@H](C)C(=O)N[C@@H](C)C(=O)N[C@@H](CCSC)C(=O)N[C@@H](CCSC)C(=O)N[C@H](C(=O)N[C@@H](CCSC)C(=O)N[C@@H](CCC(=O)O)C(=O)N[C@@H](Cc1ccc(O)cc1)C(=O)N[C@@H](C)C(=O)N[C@@H](CCCNC(=N)N)C(=O)N[C@@H](CCC(N)=O)C(=O)N[C@@H](CO)C(=O)N[C@@H](CCCCN)C(=O)N[C@@H](C)C(=O)N[C@@H](CCCCN)C(=O)N[C@@H](CCCCN)C(=O)N[C@@H](CC(C)C)C(=O)N[C@@H](CCC(N)=O)C(=O)N[C@@H](C)C(=O)N[C@@H](CCSC)C(=O)N[C@@H](CCCNC(=N)N)C(=O)O)[C@@H](C)CC,"Calmodulin-1, Ca2+-bound C-lobe (CALM1, Homo sapiens, UniProt P0DP23)","binding, isothermal titration calorimetry",,"pH 7.4, 15 °C, Ca2+-bound C-lobe, together with: CaV2.1 IQ peptide",,stoichiometry,0.83 ± 0.14
CC[C@@H](C)[C@@H](NC(=O)[C@@H](Cc1ccc(O)cc1)NC(=O)[C@H]1CCCN1C(=O)[C@@H](CCCNC(=N)N)NC(=O)[C@H](N)Cc1c[nH]cn1)C(=O)N[C@H](C)C(=O)N[C@H](Cc1c[nH]cn1)C(=O)N[C@H](CCCNC(=N)N)C(=O)N[C@@H](C(=O)N[C@H](Cc1ccc(O)cc1)C(=O)N[C@H](CO)C(=O)N[C@H](Cc1ccccc1)C(N)=O)C(C)C,"Transferrin receptor protein 1 (Tfrc, Mus musculus, UniProt Q62351)",flow cytometry,MC-38,"6 h, unit not given",reference: 0 h,surface expression,1 and 1.04
N#CC1CCN(C(=O)c2ccc(CNC(=O)OCc3ccccc3)cc2)CC1,"WD repeat-containing protein 91 WD40 domain, residues 392–747",SPR,,45 µM,,binding,-5% and 2%
Cc1ccccc1N1C(=O)c2cc(S(N)(=O)=O)c(Cl)cc2NC1C (centres unmarked),Genome polyprotein NS3 helicase domain,"DNA binding, inhibitor",hepatitis C virus,"100 µM, together with: Cy5-dT15 DNA",,inhibition,1%
O=c1nc(SCc2cc(F)cc(C(F)(F)F)c2)nc(SCc2ccc3sccc3c2)[nH]1,"TOP2A (Homo sapiens, UniProt P11388)",ATPase activity,,"1.95 µM, together with: ATP 0.025 mM",,ATP hydrolysis rate,0.363 µM/min and 0.218 µM/min
O=c1cc(-c2ccc(O)cc2)oc2cc(O[C@@H]3O[C@H](CO)[C@@H](O)[C@H](O)[C@H]3O)cc(O)c12,ESR1,array formation,PRL-HeLa,,reference: EC50 ERβ over EC50 ERα,selectivity ratio,0.939
COc1cc(/C=C2\CC/C(=C\c3ccc(O)c(OC)c3)C2=O)ccc1O,haemin,"binding, isothermal titration calorimetry",,"pH 7.4, 37 °C",,ΔS,-194.2 ± 0.14 J/(mol·K)
NC(=O)C1=CN([C@@H]2O[C@H](COP(=O)(O)OP(=O)(O)OC[C@H]3O[C@@H](n4cnc5c(N)ncnc54)[C@H](O)[C@@H]3O)[C@@H](O)[C@H]2O)C=CC1,FSP1 L323A mutant,substrate,,together with: 100 µM co-substrate,,Km,45.2 ± 6.9 µM
O=C(COP(=O)(O)O)[C@@H](O)[C@H](O)[C@H](O)COP(=O)(O)O,"TRIM25 (Homo sapiens, UniProt Q14258)",thermal proteome profiling,HepG2 cell lysate,"concentration not given, 57 over 37 °C, mean",reference: compound over control,thermal stability ratio,0.621
CCC1(O)CCCN(C(=O)c2ccc(-c3ccc(F)c(NC(=O)CCl)c3)cc2)C1 (centres unmarked),"DNA dC->dU-editing enzyme APOBEC-3B, C-terminal domain (Homo sapiens, UniProt Q9UH17)","covalent adduct, intact protein MS",,"3 h, 10-fold excess, 250 µM",,unmodified protein,22% and 9%
CC(C)(C)[C@]1(O)CCN2C[C@H]3c4ccccc4CCc4cccc(c43)[C@@H]2C1,Genome polyprotein NS3 helicase domain,"DNA binding, inhibitor",hepatitis C virus,"100 µM, together with: Cy5-dT15 DNA",,inhibition,0%
CC[C@H](C)[C@H](NC(=O)[C@H](C)NC(=O)[C@H](CCSC)NC(=O)[C@H](C)NC(=O)[C@H](C)NC(=O)[C@H](Cc1ccc(O)cc1)NC(=O)[C@@H](NC(=O)[C@H](CCCCN)NC(=O)CNC(=O)[C@@H](NC(=O)[C@@H](NC(=O)[C@H](CCSC)NC(=O)[C@H](Cc1c[nH]cn1)NC(=O)CN)[C@@H](C)O)C(C)C)[C@@H](C)CC)C(=O)N[C@@H](CCSC)C(=O)N[C@@H](CCC(=O)O)C(=O)N[C@@H](Cc1ccc(O)cc1)C(=O)N[C@@H](Cc1ccc(O)cc1)C(=O)N[C@@H](CCCNC(=N)N)C(=O)N[C@@H](CCC(N)=O)C(=O)N[C@@H](CO)C(=O)N[C@@H](CCCCN)C(=O)N[C@@H](C)C(=O)N[C@@H](CCCCN)C(=O)N[C@@H](CCCCN)C(=O)N[C@@H](CC(C)C)C(=O)N[C@@H](CCC(N)=O)C(=O)N[C@@H](C)C(=O)N[C@@H](CCSC)C(=O)N[C@@H](CCCNC(=N)N)C(=O)O,"Calmodulin-1, Ca2+-bound N-lobe (CALM1, Homo sapiens, UniProt P0DP23)","binding, isothermal titration calorimetry",,"pH 7.4, 15 °C, N-lobe, CaV2.1 IQ domain, together with: Ca2+",,stoichiometry,1 ± 0.08
CC[C@H](C)C(=O)O[C@H]1C[C@H](O)C=C2C=C[C@H](C)[C@H](CC[C@@H](O)C[C@@H](O)CC(=O)O)[C@H]21,"Nuclear receptor subfamily 4 group A member 3, ligand-binding domain (Homo sapiens, UniProt Q92570)","reporter gene, Gal4 hybrid reporter",,10 µM,reference: vehicle,activation,0.91 fold
Nc1ncnc2c1ncn2[C@@H]1O[C@H](COP(=O)(O)CP(=O)(O)OP(=O)(O)O)[C@@H](O)[C@H]1O,"P2X purinoceptor 1 (P2RX1, Homo sapiens, UniProt P51575, K136W)",calcium influx,,316 nM,reference: ionomycin response,calcium influx,71.3% and 86.5% and 85%
O=C1C[C@@H](c2ccc(O[C@@H]3O[C@H](CO)[C@@H](O)[C@H](O)[C@H]3O)cc2)Oc2cc(O)ccc21,ESR1,array formation,PRL-HeLa,,reference: EC50 ERβ over EC50 ERα,selectivity ratio,3.16
CC12CC3CC(C)(C1)CC(N)(C3)C2,"Voltage-gated potassium channel, KQT; KCNQ2(Kv7.2)/KCNQ3(Kv7.3) (KCNQ3/KCNQ2, Homo sapiens, UniProt O43525+O43526)","ion current, antagonist, SyncroPatch patch clamp",HEK293,10 µM,,inhibition,3%
Cc1ccc(C(O)c2cn(-c3ccc(C(=O)N4CCC(C#N)CC4)cc3)nn2)cc1 (centres unmarked),"WD repeat-containing protein 91 WD40 domain, residues 392–747",SPR,,45 µM,,binding,-8% and -1%
Nc1ccc(C(=O)O)cc1,"BEST1, with wild-type BEST1 (Homo sapiens, UniProt O76090, Q293K)","ion current, whole-cell patch clamp",HEK293 co-expressing mutant and wild-type,"concentration not given, voltage 0 mV",,current density,0.11 pA/pF and -0.09 pA/pF and -0.07 pA/pF and -0.06 pA/pF and 0.03 pA/pF
Cc1ccc(CN(C(=O)c2cc3cccn3cn2)C2CCc3ccccc32)cc1 (centres unmarked),"WD repeat-containing protein 91 WD40 domain, residues 392–747",SPR,,45 µM,,binding,43% and 95%
O=C1NC(=O)C(c2ccccc2)(c2ccccc2)N1,Genome polyprotein NS3 helicase domain,"DNA binding, inhibitor",hepatitis C virus,"100 µM, together with: Cy5-dT15 DNA",,inhibition,1%
CCn1c(=O)[nH]c2cc(C(=O)NC(c3ccc(F)cc3)c3cnn(C)c3)ccc2c1=O (centres unmarked),WD repeat-containing protein 91,"binding, SPR steady state",,15 µM,,SPR response,27.9 RU

# Repeated from above:
Structure (SMILES),target,assay,system,conditions,how to read,measurement,value
Cc1ccc(CN(C(=O)c2cc3cccn3cn2)C2CCc3ccccc32)cc1 (centres unmarked),"WD repeat-containing protein 91 WD40 domain, residues 392–747",SPR,,45 µM,,binding,43% and 95%
O=C1NC(=O)C(c2ccccc2)(c2ccccc2)N1,Genome polyprotein NS3 helicase domain,"DNA binding, inhibitor",hepatitis C virus,"100 µM, together with: Cy5-dT15 DNA",,inhibition,1%
